Assay results of several laboratories.
Compare with care: the assays were run in different laboratories.
Chain of UniProt P42336 (whole entry, unmodified, looked up): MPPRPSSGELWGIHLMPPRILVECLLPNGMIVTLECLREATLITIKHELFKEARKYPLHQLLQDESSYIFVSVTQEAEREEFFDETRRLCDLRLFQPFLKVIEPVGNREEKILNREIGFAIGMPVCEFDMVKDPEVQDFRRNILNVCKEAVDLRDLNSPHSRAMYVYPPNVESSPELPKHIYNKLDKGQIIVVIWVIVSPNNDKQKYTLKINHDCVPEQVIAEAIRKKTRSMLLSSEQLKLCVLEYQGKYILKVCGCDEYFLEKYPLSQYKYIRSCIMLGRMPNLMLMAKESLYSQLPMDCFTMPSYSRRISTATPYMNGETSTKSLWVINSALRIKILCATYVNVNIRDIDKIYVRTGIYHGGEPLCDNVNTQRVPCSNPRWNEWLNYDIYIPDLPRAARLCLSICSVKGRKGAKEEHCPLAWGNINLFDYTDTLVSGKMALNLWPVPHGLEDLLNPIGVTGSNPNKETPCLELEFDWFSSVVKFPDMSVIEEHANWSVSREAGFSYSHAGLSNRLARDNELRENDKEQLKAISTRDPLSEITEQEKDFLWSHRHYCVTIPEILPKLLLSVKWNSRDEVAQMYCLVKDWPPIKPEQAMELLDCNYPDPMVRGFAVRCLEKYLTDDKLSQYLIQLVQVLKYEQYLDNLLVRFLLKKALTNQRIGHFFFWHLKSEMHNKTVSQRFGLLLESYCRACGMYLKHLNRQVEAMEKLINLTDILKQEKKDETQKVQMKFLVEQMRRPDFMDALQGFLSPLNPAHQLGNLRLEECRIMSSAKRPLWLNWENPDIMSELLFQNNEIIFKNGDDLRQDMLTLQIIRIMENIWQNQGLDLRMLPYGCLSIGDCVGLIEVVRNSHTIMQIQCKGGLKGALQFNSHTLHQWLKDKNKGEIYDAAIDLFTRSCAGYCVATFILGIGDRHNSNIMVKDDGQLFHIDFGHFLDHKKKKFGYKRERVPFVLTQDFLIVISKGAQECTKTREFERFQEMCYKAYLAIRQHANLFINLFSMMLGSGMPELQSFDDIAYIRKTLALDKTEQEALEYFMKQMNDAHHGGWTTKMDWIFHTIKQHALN
Chain of UniProt P07333 (whole entry, looked up): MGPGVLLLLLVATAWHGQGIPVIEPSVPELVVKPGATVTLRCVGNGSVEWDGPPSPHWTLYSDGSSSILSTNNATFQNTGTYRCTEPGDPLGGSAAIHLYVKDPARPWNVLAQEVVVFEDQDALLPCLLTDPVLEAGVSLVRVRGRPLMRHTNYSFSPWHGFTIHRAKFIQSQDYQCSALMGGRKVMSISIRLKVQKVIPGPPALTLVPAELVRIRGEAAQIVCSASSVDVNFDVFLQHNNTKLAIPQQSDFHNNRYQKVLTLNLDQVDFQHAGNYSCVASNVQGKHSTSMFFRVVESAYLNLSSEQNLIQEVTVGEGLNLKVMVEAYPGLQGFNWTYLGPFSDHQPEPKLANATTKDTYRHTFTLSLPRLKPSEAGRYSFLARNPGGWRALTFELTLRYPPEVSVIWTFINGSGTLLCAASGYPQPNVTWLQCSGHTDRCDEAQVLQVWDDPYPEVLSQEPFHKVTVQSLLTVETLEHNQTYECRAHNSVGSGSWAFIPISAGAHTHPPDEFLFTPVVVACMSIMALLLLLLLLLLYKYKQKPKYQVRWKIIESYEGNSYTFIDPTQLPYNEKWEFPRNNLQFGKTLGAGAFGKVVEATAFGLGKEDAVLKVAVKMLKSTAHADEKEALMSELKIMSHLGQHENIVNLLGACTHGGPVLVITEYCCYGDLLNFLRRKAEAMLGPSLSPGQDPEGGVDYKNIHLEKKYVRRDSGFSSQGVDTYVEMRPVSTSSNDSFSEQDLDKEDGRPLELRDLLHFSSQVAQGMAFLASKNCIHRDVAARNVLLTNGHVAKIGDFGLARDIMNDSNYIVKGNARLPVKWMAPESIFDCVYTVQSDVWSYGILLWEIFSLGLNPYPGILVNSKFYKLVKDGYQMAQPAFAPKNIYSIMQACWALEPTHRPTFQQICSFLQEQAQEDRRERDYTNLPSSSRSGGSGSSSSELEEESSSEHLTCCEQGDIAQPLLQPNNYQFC
Chain of UniProt O75914 (whole entry, looked up): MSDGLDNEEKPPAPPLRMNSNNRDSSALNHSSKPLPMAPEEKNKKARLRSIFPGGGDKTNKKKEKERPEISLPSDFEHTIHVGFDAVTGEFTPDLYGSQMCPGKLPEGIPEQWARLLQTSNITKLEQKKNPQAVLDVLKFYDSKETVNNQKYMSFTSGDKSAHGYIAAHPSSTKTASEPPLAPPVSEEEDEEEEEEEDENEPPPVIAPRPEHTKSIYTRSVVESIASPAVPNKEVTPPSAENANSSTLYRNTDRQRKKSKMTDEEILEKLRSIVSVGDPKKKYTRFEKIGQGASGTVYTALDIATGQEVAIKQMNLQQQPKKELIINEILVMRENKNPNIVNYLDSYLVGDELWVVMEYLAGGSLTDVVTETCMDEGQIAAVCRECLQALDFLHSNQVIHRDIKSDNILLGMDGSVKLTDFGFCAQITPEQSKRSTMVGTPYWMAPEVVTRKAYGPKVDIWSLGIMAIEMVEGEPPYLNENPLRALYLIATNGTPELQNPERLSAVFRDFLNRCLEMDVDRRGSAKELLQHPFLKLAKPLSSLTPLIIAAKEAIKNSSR
Chain of UniProt P20309 (whole entry, looked up): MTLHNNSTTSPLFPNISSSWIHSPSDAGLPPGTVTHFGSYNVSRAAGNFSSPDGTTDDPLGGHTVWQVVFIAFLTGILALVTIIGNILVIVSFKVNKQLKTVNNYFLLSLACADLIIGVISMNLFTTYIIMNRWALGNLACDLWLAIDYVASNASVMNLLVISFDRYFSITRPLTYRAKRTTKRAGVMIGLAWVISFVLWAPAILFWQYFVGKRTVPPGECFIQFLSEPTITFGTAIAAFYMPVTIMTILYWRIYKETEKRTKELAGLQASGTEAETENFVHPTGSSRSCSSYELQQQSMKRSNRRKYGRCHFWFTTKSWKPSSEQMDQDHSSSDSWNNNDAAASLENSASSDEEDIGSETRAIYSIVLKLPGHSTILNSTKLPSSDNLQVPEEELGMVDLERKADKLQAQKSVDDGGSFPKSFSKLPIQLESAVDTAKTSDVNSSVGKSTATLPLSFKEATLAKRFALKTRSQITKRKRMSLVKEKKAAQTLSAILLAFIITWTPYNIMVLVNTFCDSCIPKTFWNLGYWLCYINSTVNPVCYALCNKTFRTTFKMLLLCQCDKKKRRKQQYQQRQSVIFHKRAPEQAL
Chain of UniProt P08311 (whole entry, looked up): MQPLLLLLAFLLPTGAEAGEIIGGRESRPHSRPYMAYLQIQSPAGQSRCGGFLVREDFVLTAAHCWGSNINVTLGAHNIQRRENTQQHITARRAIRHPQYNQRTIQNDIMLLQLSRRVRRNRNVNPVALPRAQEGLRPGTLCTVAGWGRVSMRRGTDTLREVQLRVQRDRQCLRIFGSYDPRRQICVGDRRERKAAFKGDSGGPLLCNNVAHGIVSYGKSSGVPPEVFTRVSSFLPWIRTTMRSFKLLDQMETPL
Chain of UniProt Q92918 (whole entry, looked up): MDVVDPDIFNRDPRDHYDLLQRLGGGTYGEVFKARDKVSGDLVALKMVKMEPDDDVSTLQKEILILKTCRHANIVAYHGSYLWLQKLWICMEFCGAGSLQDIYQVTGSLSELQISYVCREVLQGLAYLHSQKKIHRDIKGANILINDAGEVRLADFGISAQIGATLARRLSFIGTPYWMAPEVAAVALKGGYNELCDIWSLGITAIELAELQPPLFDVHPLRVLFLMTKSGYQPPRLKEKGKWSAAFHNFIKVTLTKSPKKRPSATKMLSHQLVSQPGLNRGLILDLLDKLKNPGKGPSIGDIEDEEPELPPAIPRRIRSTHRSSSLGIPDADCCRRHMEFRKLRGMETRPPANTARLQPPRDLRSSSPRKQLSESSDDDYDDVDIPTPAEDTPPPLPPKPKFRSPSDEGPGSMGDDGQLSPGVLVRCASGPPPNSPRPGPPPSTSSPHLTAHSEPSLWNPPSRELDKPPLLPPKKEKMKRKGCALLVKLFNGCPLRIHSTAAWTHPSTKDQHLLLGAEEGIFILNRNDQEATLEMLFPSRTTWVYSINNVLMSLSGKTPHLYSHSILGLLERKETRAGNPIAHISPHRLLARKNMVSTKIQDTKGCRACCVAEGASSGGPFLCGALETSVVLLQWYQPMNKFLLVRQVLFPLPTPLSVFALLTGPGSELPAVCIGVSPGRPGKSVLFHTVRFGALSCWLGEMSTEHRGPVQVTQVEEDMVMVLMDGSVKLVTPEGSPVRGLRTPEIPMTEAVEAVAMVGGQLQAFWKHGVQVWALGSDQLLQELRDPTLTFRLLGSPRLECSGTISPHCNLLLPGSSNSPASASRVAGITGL
Chain of UniProt P28222 (whole entry, looked up): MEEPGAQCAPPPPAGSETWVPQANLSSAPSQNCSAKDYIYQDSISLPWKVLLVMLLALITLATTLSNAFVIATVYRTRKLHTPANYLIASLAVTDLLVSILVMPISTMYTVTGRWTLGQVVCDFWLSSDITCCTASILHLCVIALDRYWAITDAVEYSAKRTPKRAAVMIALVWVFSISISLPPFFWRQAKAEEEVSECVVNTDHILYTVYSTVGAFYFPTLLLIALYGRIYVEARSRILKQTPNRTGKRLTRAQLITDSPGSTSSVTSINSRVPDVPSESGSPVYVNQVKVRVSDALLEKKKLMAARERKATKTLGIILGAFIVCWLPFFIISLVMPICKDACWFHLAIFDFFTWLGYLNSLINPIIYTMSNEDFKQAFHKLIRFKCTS

SMILES | target | test | setting | measurement | value
CC(C)CC(=O)OC[C@H]1O[C@@](C#N)(c2ccc3c(N)ncnn23)[C@H](O)[C@@H]1O | Cathepsin G (CTSG, Homo sapiens, UniProt P08311) | enzyme activity, inhibitor | 20 µM | inhibition | 3%
C#Cc1n[nH]c2c(-c3cn([C@@H](C)c4ccccn4)c(=O)[nH]c3=O)cc(F)cc12 | MAP4K1 (Homo sapiens, UniProt Q92918) | enzyme activity, inhibitor | 0.1 µM | inhibition | -1.4%
[2H]c1c([2H])c([C@]2([2H])CCCN2C(=O)C(C)(C)Oc2ccc3cn[nH]c3c2)c([2H])c([2H])c1C([2H])([2H])[2H] | Macrophage colony-stimulating factor 1 receptor, autoinhibited (CSF1R, Homo sapiens, UniProt P07333) | binding, competition with immobilised ligand | 1 µM | remaining binding | 98%
CN1CCC[C@H]1c1cccnc1 | HTR1B (Homo sapiens, UniProt P28222) | ligand displacement | 50 µM | inhibition | 11.7%
COc1ncccc1-c1cnn2ccc(N3CCN(C(=O)OC(C)C)CC3)nc12 | PAK3 (Homo sapiens, UniProt O75914) | binding, competition with immobilised ligand | 1 µM | remaining binding | 100%
Nc1ncc(-c2nc(N3CCOCC3)nc(N3CCOCC3)n2)c(C(F)F)n1 | PIK3CA (Homo sapiens, UniProt P42336, E542K) | binding, competition with immobilised ligand | 10 µM | remaining binding | 0%
c1cncc([C@@H]2CCCN2)c1 | CHRM3 (Homo sapiens, UniProt P20309) | ligand displacement | 50 µM | inhibition | -15.1%
Cc1nn(C)cc1-c1nc2c(N3CCN(Cc4ccc(Cl)cc4)CC3)c(Cl)cnc2[nH]1 | PIK3CA (Homo sapiens, UniProt P42336, E545K) | binding, competition with immobilised ligand | 1 µM | remaining binding | 100%

For quick reference, copied from above:
SMILES | target | test | setting | measurement | value
CC(C)CC(=O)OC[C@H]1O[C@@](C#N)(c2ccc3c(N)ncnn23)[C@H](O)[C@@H]1O | Cathepsin G (CTSG, Homo sapiens, UniProt P08311) | enzyme activity, inhibitor | 20 µM | inhibition | 3%
